# Experimental data from different studies.
# Protocols differ between the studies behind these lines. ± marks the error that the study gave.
Structure (SMILES),system,conditions,Cmax
Cc1ccccc1-c1cc(N2CC[N+](C)([O-])CC2)ncc1N(C)C(=O)C(C)(C)c1cc(C(F)(F)F)cc(C(F)(F)F)c1,"cancer patients, plasma","oral, dose not given, netupitant-palonosetron single dose, range of means",215 to 361 ng/mL
CC(C)(Sc1cc[n+]([O-])cc1-c1ccc(C#N)c2ccccc12)C(=O)OC1OC(C(=O)O)C(O)C(O)C1O (stereo not drawn),plasma,"oral, 15 mg, normal renal function, fasted",23.6 ng/mL
CC(C)[C@H](NC(=O)CNC(=O)[C@H](CCC(N)=O)NC(=O)[C@H](C)N)C(=O)O,"healthy volunteers, LPS endotoxaemia, plasma","intravenous, 45 mg/kg/h, 2 h infusion, geometric mean, together with: LPS 2 ng/kg",6030 ng/mL
COc1cc(C)c(Cc2ccc(O)cc2)cc1[C@@H]1S[C@H](CO)[C@@H](O)[C@H](O)[C@H]1O,"Japanese T2DM patients, plasma","5 mg luseogliflozin, day 1, once daily",8.9 ± 1.22 ng/mL
CC[C@@H](C)[C@H]1NC(=O)[C@@H]([C@H](C)O)NC(=O)[C@@H](Cc2c[nH]cn2)NC(=O)CNC(=O)[C@@H](CCCNC(=N)N)NC(=O)CNC(=O)[C@@H](Cc2ccccc2)NC1=O,"New Zealand white rabbit, female, vitreous","ocular, 0.5% eye drop",~239 nM
O=C(O)c1cccc(S(=O)(=O)Nc2ccccc2)c1,"patients with severe liver dysfunction, plasma","intravenous, 400 mg/m^2 belinostat, single 30 min infusion, cycle 1 day -7, mean",1880 ng/mL
CC(C)(Sc1ccncc1-c1ccc(C#N)c2ccccc12)C(=O)OC1OC(C(=O)O)C(O)C(O)C1O (stereo not drawn),plasma,"oral, 15 mg, moderate renal impairment, fasted",54.6 ng/mL
Cc1ccccc1-c1cc(N2CCNCC2)ncc1N(C)C(=O)C(C)(C)c1cc(C(F)(F)F)cc(C(F)(F)F)c1,"healthy volunteers, plasma","oral, dose not given",39.2 to 46.8 ng/mL
CONC(=O)/C=C/c1cccc(S(=O)(=O)Nc2ccccc2)c1,"patients with normal liver function, plasma","intravenous, 400 mg/m^2 belinostat, single 30 min infusion, cycle 1 day -7, mean",2100 ng/mL
